Results from different studies.
Each numbered part is a random draw from the data of one study; scales do not carry over between parts. Values joined by “and” are separate records of one study, mostly repeats; a detail may differ.
UniProt P28223, sequence (whole entry, looked up): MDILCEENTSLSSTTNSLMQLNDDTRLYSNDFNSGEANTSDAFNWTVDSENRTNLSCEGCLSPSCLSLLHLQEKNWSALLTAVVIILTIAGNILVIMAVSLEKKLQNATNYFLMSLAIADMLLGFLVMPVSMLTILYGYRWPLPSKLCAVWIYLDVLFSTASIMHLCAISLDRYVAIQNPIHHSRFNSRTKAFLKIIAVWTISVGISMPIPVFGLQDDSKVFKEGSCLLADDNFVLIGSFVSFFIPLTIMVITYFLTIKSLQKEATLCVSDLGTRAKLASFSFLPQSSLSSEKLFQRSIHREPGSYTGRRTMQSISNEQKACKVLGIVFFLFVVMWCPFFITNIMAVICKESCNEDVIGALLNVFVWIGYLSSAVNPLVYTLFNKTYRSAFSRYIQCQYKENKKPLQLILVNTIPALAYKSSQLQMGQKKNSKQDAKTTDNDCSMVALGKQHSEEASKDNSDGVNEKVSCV
UniProt P41145, sequence (whole entry, looked up): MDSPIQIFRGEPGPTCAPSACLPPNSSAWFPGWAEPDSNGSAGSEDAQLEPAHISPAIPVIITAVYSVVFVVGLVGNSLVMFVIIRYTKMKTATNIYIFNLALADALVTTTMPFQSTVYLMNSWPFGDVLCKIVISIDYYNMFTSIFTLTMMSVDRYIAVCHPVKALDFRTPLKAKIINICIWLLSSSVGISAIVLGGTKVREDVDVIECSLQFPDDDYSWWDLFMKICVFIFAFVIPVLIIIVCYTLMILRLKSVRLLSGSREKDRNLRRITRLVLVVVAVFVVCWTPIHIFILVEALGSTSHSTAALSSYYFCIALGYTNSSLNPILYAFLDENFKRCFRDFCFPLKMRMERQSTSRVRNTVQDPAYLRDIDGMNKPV
UniProt P35372, sequence (whole entry, looked up): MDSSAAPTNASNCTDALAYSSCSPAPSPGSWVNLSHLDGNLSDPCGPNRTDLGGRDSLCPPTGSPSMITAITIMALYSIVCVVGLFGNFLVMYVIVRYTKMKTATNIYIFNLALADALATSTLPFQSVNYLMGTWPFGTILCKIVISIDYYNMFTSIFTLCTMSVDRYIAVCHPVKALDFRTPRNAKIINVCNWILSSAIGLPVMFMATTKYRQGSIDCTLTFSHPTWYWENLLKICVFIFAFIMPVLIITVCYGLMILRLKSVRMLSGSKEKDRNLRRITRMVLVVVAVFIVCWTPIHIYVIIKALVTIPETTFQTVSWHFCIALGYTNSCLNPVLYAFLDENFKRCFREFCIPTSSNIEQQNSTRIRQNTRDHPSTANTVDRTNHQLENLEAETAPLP
UniProt P05771, sequence (whole entry, looked up): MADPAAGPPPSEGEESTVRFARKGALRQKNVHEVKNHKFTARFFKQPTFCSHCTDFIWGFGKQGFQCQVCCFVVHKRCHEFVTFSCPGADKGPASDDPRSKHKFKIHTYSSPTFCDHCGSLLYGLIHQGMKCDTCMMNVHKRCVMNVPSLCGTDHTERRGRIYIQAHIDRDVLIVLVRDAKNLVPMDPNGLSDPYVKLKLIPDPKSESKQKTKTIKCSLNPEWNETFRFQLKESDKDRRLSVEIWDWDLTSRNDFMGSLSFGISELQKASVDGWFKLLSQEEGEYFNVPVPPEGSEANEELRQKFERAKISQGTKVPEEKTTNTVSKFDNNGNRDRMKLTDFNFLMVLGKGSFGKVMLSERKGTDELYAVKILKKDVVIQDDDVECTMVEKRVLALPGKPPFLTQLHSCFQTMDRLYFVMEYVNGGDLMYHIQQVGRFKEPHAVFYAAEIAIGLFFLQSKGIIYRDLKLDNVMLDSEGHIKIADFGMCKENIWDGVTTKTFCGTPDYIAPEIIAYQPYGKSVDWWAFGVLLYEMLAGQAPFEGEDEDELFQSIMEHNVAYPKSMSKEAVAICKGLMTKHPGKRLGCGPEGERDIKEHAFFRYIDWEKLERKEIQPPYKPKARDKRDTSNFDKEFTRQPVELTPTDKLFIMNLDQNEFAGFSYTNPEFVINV
UniProt P20309, sequence (whole entry, looked up): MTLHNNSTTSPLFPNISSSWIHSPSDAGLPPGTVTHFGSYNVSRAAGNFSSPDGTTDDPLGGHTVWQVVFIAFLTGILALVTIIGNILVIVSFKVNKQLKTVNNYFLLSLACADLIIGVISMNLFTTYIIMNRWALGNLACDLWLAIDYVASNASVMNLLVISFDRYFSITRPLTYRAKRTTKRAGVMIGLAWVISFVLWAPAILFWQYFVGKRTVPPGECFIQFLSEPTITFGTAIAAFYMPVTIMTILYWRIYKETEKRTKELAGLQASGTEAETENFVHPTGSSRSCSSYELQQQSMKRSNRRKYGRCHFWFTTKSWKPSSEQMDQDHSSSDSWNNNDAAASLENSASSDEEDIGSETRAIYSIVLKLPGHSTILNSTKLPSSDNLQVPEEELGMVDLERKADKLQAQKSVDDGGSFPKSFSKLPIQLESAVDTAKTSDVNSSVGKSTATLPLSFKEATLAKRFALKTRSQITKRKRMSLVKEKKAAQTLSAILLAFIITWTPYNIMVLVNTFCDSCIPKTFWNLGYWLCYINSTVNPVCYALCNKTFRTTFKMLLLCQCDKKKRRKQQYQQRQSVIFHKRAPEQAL
UniProt P21918, sequence (whole entry, looked up): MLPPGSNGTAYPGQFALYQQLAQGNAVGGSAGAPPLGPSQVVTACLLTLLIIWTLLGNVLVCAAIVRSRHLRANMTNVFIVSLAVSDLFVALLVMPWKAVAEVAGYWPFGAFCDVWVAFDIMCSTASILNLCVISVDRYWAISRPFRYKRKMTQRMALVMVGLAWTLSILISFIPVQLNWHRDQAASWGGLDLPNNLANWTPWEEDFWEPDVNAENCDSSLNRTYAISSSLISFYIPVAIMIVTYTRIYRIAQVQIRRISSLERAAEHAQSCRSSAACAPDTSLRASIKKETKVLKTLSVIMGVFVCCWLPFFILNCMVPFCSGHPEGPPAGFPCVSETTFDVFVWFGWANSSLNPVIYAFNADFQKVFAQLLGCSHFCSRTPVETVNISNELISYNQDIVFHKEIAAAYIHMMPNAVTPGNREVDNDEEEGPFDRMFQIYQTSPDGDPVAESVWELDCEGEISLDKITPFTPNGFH
UniProt P11229, sequence (whole entry, looked up): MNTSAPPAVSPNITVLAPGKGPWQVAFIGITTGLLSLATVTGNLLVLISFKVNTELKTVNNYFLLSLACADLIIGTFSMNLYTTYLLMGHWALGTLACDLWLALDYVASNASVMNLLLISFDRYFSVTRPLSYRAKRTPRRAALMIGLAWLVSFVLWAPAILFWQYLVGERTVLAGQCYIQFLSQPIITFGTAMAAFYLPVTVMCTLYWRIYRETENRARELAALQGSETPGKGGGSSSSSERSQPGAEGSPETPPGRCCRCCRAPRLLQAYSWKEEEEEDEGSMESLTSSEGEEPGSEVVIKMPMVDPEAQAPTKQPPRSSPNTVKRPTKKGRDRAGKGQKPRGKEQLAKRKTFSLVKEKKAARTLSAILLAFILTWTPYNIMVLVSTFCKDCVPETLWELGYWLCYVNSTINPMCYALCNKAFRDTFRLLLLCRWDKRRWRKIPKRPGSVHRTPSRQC
UniProt P41143, sequence (whole entry, looked up): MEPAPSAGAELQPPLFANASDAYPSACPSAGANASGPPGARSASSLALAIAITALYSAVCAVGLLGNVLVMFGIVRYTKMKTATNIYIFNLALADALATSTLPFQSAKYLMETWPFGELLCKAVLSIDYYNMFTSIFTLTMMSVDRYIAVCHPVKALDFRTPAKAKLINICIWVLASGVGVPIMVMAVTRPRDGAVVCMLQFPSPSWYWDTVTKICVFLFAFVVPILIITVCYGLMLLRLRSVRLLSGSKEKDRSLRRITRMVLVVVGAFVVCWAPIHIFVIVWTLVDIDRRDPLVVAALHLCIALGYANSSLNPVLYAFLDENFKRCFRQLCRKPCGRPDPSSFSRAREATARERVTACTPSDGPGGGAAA

Set 1 — observed: enzyme activity; mode: inhibitor; concentration: 10 µM
Target: Calcium/calmodulin-dependent protein kinase type II subunit alpha (CAMK2A, Homo sapiens, UniProt Q9UQM7)
UniProt Q9UQM7, sequence (whole entry, looked up): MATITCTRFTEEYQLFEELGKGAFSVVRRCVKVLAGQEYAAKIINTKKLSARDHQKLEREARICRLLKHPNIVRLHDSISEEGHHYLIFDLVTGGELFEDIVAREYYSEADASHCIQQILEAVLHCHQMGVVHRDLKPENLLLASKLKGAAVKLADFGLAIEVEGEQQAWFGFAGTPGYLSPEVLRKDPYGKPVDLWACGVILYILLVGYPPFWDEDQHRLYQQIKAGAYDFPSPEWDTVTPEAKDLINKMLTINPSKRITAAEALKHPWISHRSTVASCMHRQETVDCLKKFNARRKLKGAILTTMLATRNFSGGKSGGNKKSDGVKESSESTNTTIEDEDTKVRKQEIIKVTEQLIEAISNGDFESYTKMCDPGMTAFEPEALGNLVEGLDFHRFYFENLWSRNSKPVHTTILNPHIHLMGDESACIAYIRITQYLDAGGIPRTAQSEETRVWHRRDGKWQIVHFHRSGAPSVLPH
Compound	inhibition [%]
CN1[C@@H]2CC[C@H]1CC(O)C2 (stereo partly shown)	24
C=C1[C@@H](C)[C@H]2[C@H](Cc3ccccc3)NC(=O)[C@]23OC(=O)/C=C/[C@H](O)CCC[C@@H](C)C/C=C/[C@H]3[C@@H]1O	-29
CC[C@H]1CN2CC[C@H]1C[C@@H]2[C@@H](O)c1ccnc2ccc(OC)cc12	4
CC(C)=CCC[C@@](C)(O)[C@H]1CC[C@]2(C)[C@@H]1[C@H](O)C[C@@H]1[C@@]3(C)CC[C@H](O[C@@H]4O[C@H](CO)[C@@H](O)[C@H](O)[C@H]4O)C(C)(C)[C@@H]3CC[C@]12C	-3

Set 2 — observed: RNA clamping; method: fluorescence polarization; concentration: concentration not given; together with: FAM-labelled poly r(AG)8 RNA; direction: higher = more clamping
Target: Eukaryotic initiation factor 4A-I (EIF4A1, Homo sapiens, UniProt P60842)
UniProt P60842, sequence (whole entry, looked up): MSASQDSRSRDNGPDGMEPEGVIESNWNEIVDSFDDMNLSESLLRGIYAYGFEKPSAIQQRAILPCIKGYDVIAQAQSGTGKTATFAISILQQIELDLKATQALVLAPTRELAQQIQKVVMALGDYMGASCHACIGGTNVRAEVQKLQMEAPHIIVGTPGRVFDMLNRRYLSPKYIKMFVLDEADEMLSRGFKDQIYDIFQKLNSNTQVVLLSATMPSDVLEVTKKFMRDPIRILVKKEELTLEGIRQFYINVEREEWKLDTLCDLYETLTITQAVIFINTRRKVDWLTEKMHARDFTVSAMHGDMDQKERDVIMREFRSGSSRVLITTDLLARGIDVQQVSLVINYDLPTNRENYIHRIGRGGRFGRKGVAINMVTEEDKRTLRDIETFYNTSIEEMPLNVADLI
SMILES	fluorescence polarization change
COCCN[C@]12c3c(OC)cc(OC)cc3O[C@@]1(c1ccc(OC)cc1)[C@H](c1ccccc1)C[C@@H]2O	6 mP
COc1ccc([C@@]23Oc4cc(OC)cc(OC)c4[C@]2(O)c2nc4n(c(=O)c2[C@H]3c2ccccc2)CCCC4)cc1	51.1 mP
COc1ccc([C@@]23Oc4cc(OC)cc(OC)c4[C@]2(O)c2nc(-c4ccc(N(C)C)cc4)[nH]c(=O)c2[C@H]3c2ccccc2)cc1	5.1 mP
COc1ccc([C@@]23Oc4cc(OC)cc(OC)c4[C@]2(O)c2nc[nH]c(=O)c2[C@H]3c2ccccc2)cc1	45.3 mP
COC(=O)[C@H]1[C@@H](c2ccccc2)C2(c3ccc(OC)cc3)Oc3cc(OC)cc(OC)c3[C@@]1(O)C2=O	4.7 mP
COc1ccc([C@@]23Oc4cc(OC)cc(OC)c4[C@]2(O)c2nc4n(c(=O)c2[C@H]3c2ccccc2)CCC4)cc1	56.6 mP and 78 mP
COc1ccc(-c2nc3c(c(=O)[nH]2)[C@H](c2ccccc2)[C@@]2(c4ccc(OC)cc4)Oc4cc(OC)cc(OC)c4[C@@]32O)cc1	28.7 mP
COC(=O)[C@H]1[C@@H](O)[C@@]2(O)c3c(OC)cc(OC)cc3O[C@@]2(c2ccc(OC)cc2)[C@@H]1c1ccccc1	62.2 mP and 32 mP
COC(=O)[C@H]1[C@@H](O)[C@@]2(O)c3c(OC)cc(O)cc3O[C@@]2(c2ccc(OC)cc2)[C@@H]1c1ccccc1	53 mP
COc1ccc([C@@]23Oc4cc(OC)cc(OC)c4[C@]2(O)c2nc(-c4ccccc4)[nH]c(=O)c2[C@H]3c2ccccc2)cc1	17.3 mP

Set 3 — observed: cell-free assay; concentration: 10 µM
Structure (SMILES): Cc1c(C(=O)O)cc(-c2ccc(C3CCNCC3)cc2)c2ccc(-c3ccc(C(F)(F)F)cc3)cc12
target	inhibition
CHRM1 (Homo sapiens, UniProt P11229)	7.22%
OPRK1 (Homo sapiens, UniProt P41145)	27.9%
DRD5 (Homo sapiens, UniProt P21918)	58.1%
HTR2A (Homo sapiens, UniProt P28223)	23.4%
CHRM3 (Homo sapiens, UniProt P20309)	0.06%
OPRD1 (Homo sapiens, UniProt P41143)	32%
OPRM1 (Homo sapiens, UniProt P35372)	12.6%

Single results of other studies
Compound	target	observed	mode	concentration	baseline	measurement	value
O=c1[nH]c2ccccc2n1C1CCN(Cc2ccc(-c3[nH]c4cc5ncnc5cc4nc3-c3ccccc3)cc2)CC1	Protein kinase C beta type, isoform beta-II (PRKCB, Homo sapiens, UniProt P05771)	enzyme activity	inhibitor	0.5 µM	control	remaining activity	105%

For quick reference, copied from above (set 3):
target	inhibition
DRD5 (Homo sapiens, UniProt P21918)	58.1%
HTR2A (Homo sapiens, UniProt P28223)	23.4%
CHRM3 (Homo sapiens, UniProt P20309)	0.06%
